Results pooled from the literature.
Organism: Escherichia coli

With `C#CCO/N=C(\C(=O)N[C@@H]1C(=O)N(OS(=O)(=O)O)C1(C)C)c1nsc(N)n1` the MIC was 16 µg/mL (agar dilution; CDC 1001728, NDM-1).
The MIC of `CO[C@@H](C(N)=O)[C@H](NC(=O)c1ccc(NC(=O)[C@@H](N)Cc2ccc(O)cc2)cc1)C(=O)Nc1ccc(C(=O)Nc2ccc(C(=O)Nc3ccc(C(=O)O)c(O)c3OC(C)C)c(O)c2OC(C)C)cc1` is reported as 0.5 µg/mL (empty cosmid vector; 16 h, 37 °C).
The MIC of `Cc1ccc2nc(C)c(C(=O)C(=O)NCc3ccc(N(C)C)cc3)n2c1` is reported as over 128 µM (microbial growth, broth dilution).
The MIC of `CC[C@H](C)[C@H](NC(=O)[C@H](CCCCN)NC(=O)[C@@H](NC(=O)[C@@H](NC(=O)[C@H](CC(C)C)NC(=O)[C@H](CCCNC(=N)N)NC(=O)[C@@H](NC(=O)[C@H](CC(C)C)NC(=O)[C@H](CCCNC(=N)N)NC(=O)CNC(=O)[C@H](Cc1ccccc1)NC(=O)[C@@H](N)CCCNC(=N)N)[C@@H](C)CC)[C@@H](C)CC)C(C)C)C(=O)N[C@@H](C)C(=O)N[C@@H](CCCNC(=N)N)C(=O)N[C@@H](CCCNC(=N)N)C(=O)N[C@@H](C)C(=O)N[C@@H](Cc1c[nH]cn1)C(=O)N[C@@H](CCCNC(=N)N)C(=O)N[C@@H](C)C(=O)N[C@@H](CCCNC(=N)N)C(=O)N1CCC[C@H]1C(=O)N[C@@H](C)C(=O)N[C@H](C(=O)N[C@@H](CCCCN)C(=O)N[C@@H](C)C(=O)N[C@@H](C)C(=O)N[C@@H](CO)C(=O)N[C@@H](CC(N)=O)C(=O)N[C@H](C(=O)N[C@@H](C)C(=O)N[C@@H](CCC(=O)O)C(=O)N[C@@H](CC(C)C)C(=O)N[C@@H](C)C(=O)N[C@@H](Cc1c[nH]cn1)C(=O)NCC(=O)N[C@@H](CCC(=O)O)C(N)=O)C(C)C)C(C)C` is reported as 4 µM (bacterial growth, broth microdilution; cation-adjusted Mueller Hinton broth; 18 h, 37 °C).
For `CC1(C)[C@H](NC(=O)/C(=N\OC2(C(=O)O)CCCC2)c2csc(N)n2)C(=O)N1OS(=O)(=O)O`, the MIC was 0.25 µg/mL (agar dilution; 08-85, mcr-1).
For `CC[C@H](C)[C@H](NC(=O)[C@H](Cc1c[nH]c2ccccc12)NC(=O)[C@H](CCCNC(=N)N)NC(=O)[C@@H](N)CCCNC(=N)N)C(=O)N[C@@H](CCCNC(=N)N)C(=O)N[C@@H](Cc1c[nH]c2ccccc12)C(=O)N[C@H](C(=O)N[C@H](C(N)=O)[C@@H](C)O)[C@@H](C)CC`, the MIC was 16 µg/mL (25922).
For `CC[C@H](C)[C@H](NC(=O)[C@H](CCCNC(=N)N)NC(=O)[C@@H]1CCCN1C(=O)[C@H](CCCNC(=N)N)NC(=O)[C@H](Cc1ccccc1)NC(=O)[C@H](Cc1c[nH]cn1)NC(=O)[C@H](CCCNC(=N)N)NC(=O)[C@H](CC(C)C)NC(=O)[C@H](CCCCN)NC(=O)CNC(=O)[C@H](CC(C)C)NC(=O)[C@H](Cc1ccccc1)NC(=O)[C@H](CCCNC(=N)N)NC(=O)CNC(=O)[C@H](Cc1ccccc1)NC(=O)[C@H](CCCNC(=N)N)NC(=O)CNC(=O)[C@H](CCCNC(=N)N)NC(=O)[C@H](CCC(N)=O)NC(=O)[C@@H](NC(=O)[C@@H](N)CC(C)C)[C@@H](C)CC)C(=O)N[C@@H](CCCCN)C(=O)N[C@@H](Cc1ccccc1)C(=O)N[C@@H](CCCCN)C(=O)NCC(=O)N[C@@H](CCCCN)C(=O)N[C@@H](C)C(=O)NCC(=O)N[C@@H](Cc1c[nH]c2ccccc12)C(=O)N[C@H](C(=O)N[C@H](C(=O)NCC(=O)O)C(C)C)[C@@H](C)O`, the MIC was 0.64 log10 µg/mL (broth microdilution; K88).
For `CC[C@H](C)[C@H](NC(=O)[C@@H](CCCNC(=N)N)NC(=O)[C@H](CCCNC(=N)N)NC(=O)[C@@H]1CCCN1C(=O)[C@H](Cc1c[nH]c2ccccc12)NC(=O)[C@H](CCCNC(=N)N)NC(=O)[C@@H]1CCCN1C(=O)[C@H](CCCNC(=N)N)NC(=O)[C@@H]1CCCN1C(=O)[C@H](CC(C)C)NC(=O)[C@H](Cc1ccc(O)cc1)NC(=O)[C@@H]1CCCN1C(=O)[C@@H]1CCCN1C(=O)[C@H](CCCCN)NC(=O)[C@H](CC(=O)O)NC(=O)[C@@H](N)C(C)C)C(=O)N[C@@H](Cc1ccc(O)cc1)C(=O)N[C@@H](CC(N)=O)C(=O)N[C@H](CCCNC(=N)N)C(N)=O`, the MIC was 8 µg/mL (broth microdilution; ATCC 25922; 18 h, 37 °C, 25% MHB2).
`CC[C@H](C)[C@H](NC(=O)[C@H](CCCCN)NC(=O)[C@H](Cc1c[nH]c2ccccc12)NC(=O)[C@H](Cc1c[nH]c2ccccc12)NC(=O)[C@H](CCCCN)NC(=O)[C@H](CCCCN)NC(=O)[C@H](CCCCN)NC(=O)[C@H](Cc1c[nH]c2ccccc12)NC(=O)[C@H](CCCCN)NC(=O)[C@H](CCCCN)NC(=O)[C@H](Cc1c[nH]c2ccccc12)NC(=O)[C@H](CCCCN)NC(=O)[C@H](CCCCN)NC(=O)[C@@H](NC(=O)[C@@H](NC(=O)[C@H](CCCCN)NC(=O)[C@@H](N)CCCNC(=N)N)[C@@H](C)CC)[C@@H](C)CC)C(=O)N[C@@H](Cc1c[nH]c2ccccc12)C(=O)N[C@@H](Cc1c[nH]c2ccccc12)C(=O)N[C@@H](CCCCN)C(N)=O` gave an MIC of 1.25 µg/mL (broth microdilution; 25922).
The MIC of `CC[C@H](C)[C@H](N)C(=O)N[C@@H](CCCNC(=N)N)C(=O)N[C@H](C(=O)N[C@@H](Cc1c[nH]c2ccccc12)C(=O)N[C@@H](CCCCN)C(=O)N[C@@H](CCCCN)C(=O)N[C@H](C(=O)N[C@H](C(=O)N[C@@H](CCCNC(=N)N)C(=O)N[C@@H](CCCCN)C(=O)N[C@@H](CCSC)C(=O)N[C@@H](CCCCN)C(=O)N[C@@H](C)C(=O)N[C@H](C(=O)N[C@@H](Cc1ccc(O)cc1)C(=O)N[C@@H](Cc1c[nH]cn1)C(N)=O)[C@@H](C)CC)C(C)C)[C@@H](C)CC)C(C)C` is reported as 50 µM (broth dilution; ATCC 25922, Mueller-Hinton broth; 24 h, 37 °C).
`CC(C)C[C@@H](NC(=O)[C@H](NC(=O)[C@@H](CCCCN)NC(=O)[C@@H](CCCCN)NC(=O)[C@@H](CC(C)C)NC(=O)[C@@H](Cc1c[nH]c2ccccc12)NC(=O)[C@@H](CCCCN)NC(=O)[C@@H](CC(C)C)NC(=O)[C@@H](CC(C)C)NC(=O)[C@@H](CCCCN)NC(=O)[C@@H](CCCCN)NC(=O)[C@H](N)C(C)C)C(C)C)C(N)=O` gave an MIC of 16 µM (24 h, 37 °C, Mueller-Hinton broth, CaCl2 2.5 mM).
The MIC of `CC[C@H](C)[C@H](NC(=O)[C@@H](CCCNC(=N)N)NC(=O)[C@H](CCCNC(=N)N)NC(=O)CNC(=O)[C@H](Cc1c[nH]c2ccccc12)NC(=O)[C@H](CCCNC(=N)N)NC(=O)[C@@H]1CCCN1C(=O)[C@H](CCCNC(=N)N)NC(=O)[C@@H]1CCCN1C(=O)[C@H](CC(C)C)NC(=O)[C@H](Cc1ccc(O)cc1)NC(=O)[C@@H]1CCCN1C(=O)[C@@H]1CCCN1C(=O)[C@H](CCCCN)NC(=O)[C@H](CC(=O)O)NC(=O)[C@@H](N)C(C)C)C(=O)N[C@@H](Cc1ccc(O)cc1)C(=O)N[C@@H](CC(N)=O)C(=O)N[C@H](CCCNC(=N)N)C(N)=O` is reported as 8 µg/mL (broth microdilution; ATCC 25922; 18 h, 37 °C, 25% MHB2).
The MIC of `CC(C)C[C@@H](NC(=O)[C@@H](CCCNC(=N)N)NC(=O)[C@H](N)CCCNC(=N)N)C(=O)N[C@H](CC(C)C)C(=O)N[C@H](CCCNC(=N)N)C(=O)N[C@H](CCCCN)C(=O)N[C@H](CC(C)C)C(=O)N[C@H](CCCCN)C(=O)NCC(=O)N[C@H](CCCCN)C(=O)N[C@H](CCCCN)C(=O)N[C@H](CC(C)C)C(=O)N[C@H](Cc1ccc(O)cc1)C(=O)N[C@H](CC(C)C)C(=O)N[C@H](Cc1ccc(O)cc1)C(=O)N[C@H](Cc1ccccc1)C(=O)N[C@H](CCCCN)C(=O)N[C@H](CC(C)C)C(=O)N[C@H](CCC(N)=O)C(=O)N[C@H](CC(C)C)C(=O)N[C@H](CC(C)C)C(=O)N[C@H](CCCCN)C(=O)N[C@H](CCCCN)C(N)=O` is reported as 4 µM (broth microdilution; KCTC 1682, Mueller-Hinton broth; no added salt).
The MIC of `CC[C@H](C)[C@H](NC(=O)[C@@H](CCCNC(=N)N)NC(=O)[C@H](CCCNC(=N)N)NC(=O)[C@H](Cc1c[nH]cn1)NC(=O)[C@H](Cc1c[nH]c2ccccc12)NC(=O)[C@H](CCCNC(=N)N)NC(=O)[C@@H]1CCCN1C(=O)[C@H](CCCNC(=N)N)NC(=O)[C@@H]1CCCN1C(=O)[C@H](CC(C)C)NC(=O)[C@H](Cc1ccc(O)cc1)NC(=O)[C@@H]1CCCN1C(=O)[C@@H]1CCCN1C(=O)[C@H](CCCCN)NC(=O)[C@H](CC(=O)O)NC(=O)[C@@H](N)C(C)C)C(=O)N[C@@H](Cc1ccc(O)cc1)C(=O)N[C@@H](CC(N)=O)C(=O)N[C@H](CCCNC(=N)N)C(N)=O` is reported as 8 µg/mL (broth microdilution; MC4100; 18 h, 37 °C, 25% MHB2).
`CC(=O)N[C@@H](CC(C)C)C(=O)N[C@H]1CSSC[C@@H](C(=O)N2CCC[C@H]2C(N)=O)NC(=O)[C@H](CCCCN)NC(=O)[C@H](C(C)C)NC(=O)[C@H](CCCCN)NC(=O)CNC(=O)[C@H](CC(C)C)NC(=O)[C@H](Cc2ccccc2)NC(=O)[C@H](CCCCN)NC(=O)[C@H](CC(C)C)NC(=O)[C@H](CCC(=O)O)NC(=O)[C@H](Cc2ccccc2)NC(=O)[C@H](CCCNC(=N)N)NC(=O)[C@H](CCCCN)NC(=O)[C@H](CC(C)C)NC(=O)[C@H](CC(=O)O)NC(=O)[C@@H]2CCCN2C(=O)[C@H](CCCCN)NC(=O)[C@H](C(C)C)NC(=O)[C@H](CCCCN)NC(=O)[C@H](CCCCN)NC(=O)[C@H](CCCCN)NC1=O` gave an MIC of over 40 µM (broth dilution; laboratory strain; 24 h).
`CCCCCCCC(=O)N[C@@H](CCN)C(=O)N[C@H](C(=O)N[C@@H](CCN)C(=O)N[C@H]1CCNC(=O)[C@H]([C@@H](C)O)NC(=O)[C@H](CCN)NC(=O)[C@H](CCN)NC(=O)[C@H](CC(C)C)NC(=O)[C@@H](Cc2ccc(F)cc2)NC(=O)[C@H](CCN)NC1=O)[C@@H](C)O` has an MIC of 0.03 to 0.06 µg/mL (broth microdilution; ATCC 25922, colistin-susceptible).

A few entries again:
For `CC[C@H](C)[C@H](NC(=O)[C@@H](CCCNC(=N)N)NC(=O)[C@H](CCCNC(=N)N)NC(=O)[C@@H]1CCCN1C(=O)[C@H](Cc1c[nH]c2ccccc12)NC(=O)[C@H](CCCNC(=N)N)NC(=O)[C@@H]1CCCN1C(=O)[C@H](CCCNC(=N)N)NC(=O)[C@@H]1CCCN1C(=O)[C@H](CC(C)C)NC(=O)[C@H](Cc1ccc(O)cc1)NC(=O)[C@@H]1CCCN1C(=O)[C@@H]1CCCN1C(=O)[C@H](CCCCN)NC(=O)[C@H](CC(=O)O)NC(=O)[C@@H](N)C(C)C)C(=O)N[C@@H](Cc1ccc(O)cc1)C(=O)N[C@@H](CC(N)=O)C(=O)N[C@H](CCCNC(=N)N)C(N)=O`, the MIC was 8 µg/mL (broth microdilution; ATCC 25922; 18 h, 37 °C, 25% MHB2).
`CC[C@H](C)[C@H](NC(=O)[C@H](CCCCN)NC(=O)[C@H](Cc1c[nH]c2ccccc12)NC(=O)[C@H](Cc1c[nH]c2ccccc12)NC(=O)[C@H](CCCCN)NC(=O)[C@H](CCCCN)NC(=O)[C@H](CCCCN)NC(=O)[C@H](Cc1c[nH]c2ccccc12)NC(=O)[C@H](CCCCN)NC(=O)[C@H](CCCCN)NC(=O)[C@H](Cc1c[nH]c2ccccc12)NC(=O)[C@H](CCCCN)NC(=O)[C@H](CCCCN)NC(=O)[C@@H](NC(=O)[C@@H](NC(=O)[C@H](CCCCN)NC(=O)[C@@H](N)CCCNC(=N)N)[C@@H](C)CC)[C@@H](C)CC)C(=O)N[C@@H](Cc1c[nH]c2ccccc12)C(=O)N[C@@H](Cc1c[nH]c2ccccc12)C(=O)N[C@@H](CCCCN)C(N)=O` gave an MIC of 1.25 µg/mL (broth microdilution; 25922).
The MIC of `CC[C@H](C)[C@H](N)C(=O)N[C@@H](CCCNC(=N)N)C(=O)N[C@H](C(=O)N[C@@H](Cc1c[nH]c2ccccc12)C(=O)N[C@@H](CCCCN)C(=O)N[C@@H](CCCCN)C(=O)N[C@H](C(=O)N[C@H](C(=O)N[C@@H](CCCNC(=N)N)C(=O)N[C@@H](CCCCN)C(=O)N[C@@H](CCSC)C(=O)N[C@@H](CCCCN)C(=O)N[C@@H](C)C(=O)N[C@H](C(=O)N[C@@H](Cc1ccc(O)cc1)C(=O)N[C@@H](Cc1c[nH]cn1)C(N)=O)[C@@H](C)CC)C(C)C)[C@@H](C)CC)C(C)C` is reported as 50 µM (broth dilution; ATCC 25922, Mueller-Hinton broth; 24 h, 37 °C).
